Measured values of several laboratories.
Values joined by “and” are separate records of one study, mostly repeats; a detail may differ.
Target: BMP-2-inducible protein kinase (BMP2K, Homo sapiens, UniProt Q9NSY1)

CNC1C[S+]2CC[S+]3CC[S+](C1)[Ru-4]321([N]=C=S)[n]2c3ccc(OC)cc3c3c4c(c5cc(F)c[n+]1c5c32)C(=O)NC4=O (centres unmarked) — remaining binding (KinomeScan; 0.1 µM; reference: untreated): 100%
CNC(=O)C1CCN(c2cc(C)c(F)cc2NC(=O)c2ccc(-c3cc(O)ccc3C)c(C)c2)CC1 — remaining binding (binding, competition with immobilised ligand; 1 µM): 100%
O=C(Cc1ccc(OCc2ccccc2)cc1)NC1(C(=O)O)CCN(C(=O)c2ccc(-c3cccc(Cl)c3)cc2)CC1 — activity vs control (enzyme activity, inhibitor; 10 µM): 94%
C=CC(=O)N1CCCC(n2c(=O)c3ncccc3n(Cc3ccc(Oc4ccccc4)cc3)c2=O)C1 (centres unmarked) — remaining binding (cell-free assay, competition with immobilised ligand; 1 µM): 90%
COc1cc(Nc2nc(C)cc(-c3cnn4nc(OC)ccc34)n2)cc(C(F)(F)F)c1 — remaining binding (KINOMEscan; 1 µM, BIKE; reference: DMSO): 86%
Cc1c[nH]c2nccc(-c3ccc(C(=O)N[C@@H]4c5c(F)cc(C(F)F)cc5C[C@@H]4O)cn3)c12 — remaining binding (binding, competition with immobilised ligand; 3 µM): 12%
C[C@]1(O)CCCN(c2nc(Nc3ccc(S(=O)(=O)N[C@H]4CC[C@H](CN5CCN(c6ccc(C7CCC(=O)NC7=O)cc6F)CC5)CC4)cc3)ncc2C(F)(F)F)C1 (some centres unmarked) — remaining binding (binding, competition with immobilised ligand; 1 µM): 0.3%
N[C@H]1CC[C@H](Nc2nccc(-c3cccnc3Oc3ccc(NC(=O)NC4CC4)c4ccccc34)n2)CC1 — log2 LFQ intensity (kinobead competition pulldown; HEK293/HCT116 lysate mixture; 10 µM, 1 h, 4 °C; lower = stronger competition): 27.3 and 27.5
COc1cc(Nc2nccc(-c3cnn4nc(OC)ccc34)n2)cc(C(F)(F)F)c1 — remaining binding (binding, competition with immobilised ligand; 1 µM): 92%
CCn1cc(C(=O)O)c(=O)c2c(N)c(F)c(NC3CCCCC3)cc21 — inhibition (kinase activity; 0.1 µM, together with: ATP at Km): -0.3%
Cc1ccc(-c2c(/C=C(\C#N)C(=O)NC(C)C)n(CCCO)c3ncnc(N)c23)cc1 — remaining binding (cell-free assay, competition with immobilised ligand; 1 µM): 73%
CCN1CCN(Cc2ccc(C(=O)Nc3ccc(C)c(NCc4cnc5[nH]ccc5c4OC)c3)cc2C(F)(F)F)CC1 — remaining binding (binding, competition with immobilised ligand; 1 µM): 88%
Nc1ncc2c(n1)-c1c([nH]c3ccc(C4=CCOCC4)cc13)CCC2 — remaining binding (binding, competition with immobilised ligand; 1 µM): 100%
C=CC(=O)N1CCc2ccc(-n3c(=O)ccc4cnc5ccc(-c6cnn(C)c6)cc5c43)cc21 — remaining binding (KINOMEscan; 1 µM; reference: DMSO control): 84%
Cc1cnc2nc1Nc1cccc(c1)COC/C=C/COCc1cc(ccc1OCCN1CCOCC1)N2 — remaining binding (binding, competition with immobilised ligand; 0.1 µM): 85%
COc1c(Cl)cccc1Nc1c(-c2ccncc2C#C[C@@]2(C)CCCN2C(=O)/C=C/CN(C)C)[nH]c2c1C(=O)NCC2 — remaining binding (binding, competition with immobilised ligand; 3 µM): 88%
CC(C)=CC1OC(C)(C)C2C=C3C(=O)C(Cl)=CC(O)C3C3C(O)C4OC4C(=O)C132 (centres unmarked) — remaining binding (cell-free assay, competition with immobilised ligand; 10 µM): 86%

A few entries again:
C[C@]1(O)CCCN(c2nc(Nc3ccc(S(=O)(=O)N[C@H]4CC[C@H](CN5CCN(c6ccc(C7CCC(=O)NC7=O)cc6F)CC5)CC4)cc3)ncc2C(F)(F)F)C1 (some centres unmarked) — remaining binding (binding, competition with immobilised ligand; 1 µM): 0.3%
